{"data": "Measured values pooled from the literature", "note": "A part holds a random share of what one study measured."}
{"data": "Block 1", "target": "Interferon regulatory factor 5, full length, phosphomimetic (IRF5, Homo sapiens, UniProt Q13568-2, residues 1-514, K96S/S451D/S453D/S456D/S462D)", "method": "protein-binding microarray", "form": "double-stranded DNA, one strand shown", "medium": "in vitro", "tested at": "250 nM", "setting": "60-bp whole probe", "together with": "salmon DNA 0.4 mg/ml", "baseline": "random background probes", "direction": "higher = stronger binding", "all sequences stand within": "GCCTAGCAC … GTCTTGATTCGCTTGACGCTGCTG"}
{"Sequence": "TTAGATATCGCGACTGGATTAGTGCTA", "log fluorescence [z-score]": 0.447}
{"Sequence": "GACGATATCAGACGGGAGACGTGCTAG", "log fluorescence [z-score]": 0.188}
{"Sequence": "GACGGCATCGGGTTTCGGGACGTGCTA", "log fluorescence [z-score]": 1.57}
{"Sequence": "GACGTTTTCCTTCTCCTGACGTGCTAG", "log fluorescence [z-score]": 0.833}
{"Sequence": "TCAGTTTGCCCTATTTAACTGTGCTAG", "log fluorescence [z-score]": 0.383}
{"data": "Block 2", "target": "Sal-like protein 4, full length isoform B (SALL4, Homo sapiens, UniProt Q9UJQ4-2, residues 1-616)", "method": "universal PBM", "form": "double-stranded DNA, one strand shown", "medium": "in vitro", "tested at": "not given", "setting": "8-mer, flanks averaged, mean of replicates", "direction": "higher = stronger binding", "Target sequence (chain)": "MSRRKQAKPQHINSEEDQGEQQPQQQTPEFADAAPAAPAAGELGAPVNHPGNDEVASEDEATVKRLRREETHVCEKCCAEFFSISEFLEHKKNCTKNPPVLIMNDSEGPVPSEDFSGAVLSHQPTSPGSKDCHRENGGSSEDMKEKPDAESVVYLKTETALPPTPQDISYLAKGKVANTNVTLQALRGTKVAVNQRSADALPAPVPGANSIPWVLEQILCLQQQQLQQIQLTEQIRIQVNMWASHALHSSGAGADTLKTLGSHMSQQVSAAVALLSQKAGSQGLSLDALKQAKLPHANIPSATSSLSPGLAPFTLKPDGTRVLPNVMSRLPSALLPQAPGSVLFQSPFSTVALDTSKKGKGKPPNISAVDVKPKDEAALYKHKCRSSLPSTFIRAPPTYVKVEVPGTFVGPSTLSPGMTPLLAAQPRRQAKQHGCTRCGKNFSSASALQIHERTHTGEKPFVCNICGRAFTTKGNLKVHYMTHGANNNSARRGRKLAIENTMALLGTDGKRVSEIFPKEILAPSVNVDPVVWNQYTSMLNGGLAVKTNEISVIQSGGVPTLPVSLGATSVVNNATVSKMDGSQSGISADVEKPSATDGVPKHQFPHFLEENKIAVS"}
{"Sequence": "ACCAGAAT", "E-score": 0.0704}
{"Sequence": "AACATCCG", "E-score": 0.00046}
{"Sequence": "AGATGGGA", "E-score": 0.00343}
{"Sequence": "CCTTAACC", "E-score": -0.138}
{"Sequence": "AGCTTTGC", "E-score": -0.0885}
{"Sequence": "TAGAGGGA", "E-score": 0.0273}
{"Sequence": "AGTACTGG", "E-score": -0.192}
{"data": "Block 3", "target": "Prothrombin, mature alpha-thrombin (F2, Homo sapiens, UniProt P00734)", "method": "aptamer microarray, sandwich", "form": "DNA with 2'F-ANA", "medium": "in vitro", "tested at": "200 nM", "setting": "whole 15-mer aptamer, many near background", "together with": "Cy3 exosite-II aptamer, 400 nM", "direction": "higher = stronger binding", "sequence": "GGTTGGTGTGGTTGG"}
{"Modification": "2'F-ANA at 3 5 8 11", "mean fluorescence intensity": "122 a.u."}
{"Modification": "2'F-ANA at 4 5 6 7 12 14", "mean fluorescence intensity": "49.7 a.u."}
{"Modification": "2'F-ANA at 2 5 8 10 11 12 15", "mean fluorescence intensity": "103 a.u."}
{"Modification": "2'F-ANA at 3 6 9 10 11 14", "mean fluorescence intensity": "391 a.u."}
{"Modification": "2'F-ANA at 3 6 7 8 9 10 13", "mean fluorescence intensity": "493 a.u."}
{"Modification": "2'F-ANA at 1 3 4 6 7 8 10 14", "mean fluorescence intensity": "55.7 a.u."}
{"data": "Further values, each from its own experiment"}
{"Substance": "PhoQ, residues 284 288 289 292 302 303 TAVSDG", "target": "PhoP, residues 12 14 15 18 19 NMSFL (Escherichia coli, UniProt P23836)", "assay": "Sort-seq, measured: YFP reporter", "system": "E. coli", "setting": "PhoQ-PhoP variant library, together with: 10 µM Mg2+", "scale": "baseline: high Mg2+ state, higher = stronger signaling", "quantity": "fold induction", "result": 17.4}
{"note": "Excerpt of the above (block 1):"}
{"Sequence": "GACGGCATCGGGTTTCGGGACGTGCTA", "log fluorescence [z-score]": 1.57}
{"Sequence": "TCAGTTTGCCCTATTTAACTGTGCTAG", "log fluorescence [z-score]": 0.383}
